Measurements pooled from the literature.
Every numbered part comes from another study and shows a few of its results, in no order.

Block 1
Target: RNA binding protein fox-1 homolog 2, RRM domain, GST-SBP tag (RBFOX2, Homo sapiens, UniProt O43251-10, residues 100-194)
Technique: RNA Bind-n-Seq
Molecule type: RNA
Sample: in vitro
Concentration: 365 nM
Notes: natural RNA segment, single round, ends assumed
Baseline: no-protein control
Reading: higher = stronger binding
For `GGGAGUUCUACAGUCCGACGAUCAUCUUUUGCUUUUUUAAAAUUGUUUUUUGCAGUUAAGAGGCAGCUCAUUUGUCCAAAUUUCUGGGCUCAGCGCUUGGGAGGGCAGGAGCCCUGGCACUAAUGCUGUACAGUGGAAUUCUCGGGUGCCAA`, “RBNS enrichment (R)” read 0.612.
For `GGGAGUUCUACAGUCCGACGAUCAAUCUCCUGGGAGCAGGGCACAGGGAAGACUAUGAGGAGAGCUAAUGUGGUCUGUACAAGGACACUGGAGGAAGUAUGUUUGCUACCUGUAAGUUCUAAAUGUGUACUCCUGGAAUUCUCGGGUGCCAA`, “RBNS enrichment (R)” read 0.571.
`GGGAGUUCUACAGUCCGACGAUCUUACCCUUCUUGCUAUUGGAAACUCAGCACAUUUGAACUUGGGUUUGAUUCAGUAUUAACAGAUCUUGACUACACUAAUUCUUUAUAUUAUAGAACCAACGGAAAUAUGGUGGAAUUCUCGGGUGCCAA`: “RBNS enrichment (R)” 0.69.
`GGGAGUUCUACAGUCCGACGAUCAUGUGUUAAGAGUGAGUGGUACACUGGGGUUUAUUUCUGUGGCCUGGGAAGGAAGAAACCAUCACGAGGAUUGGUGAACAAAGUGUGCUCACUGGGUUUCUGGAUUAUUCUGGAAUUCUCGGGUGCCAA` — result for “RBNS enrichment (R)”: 1.12.
`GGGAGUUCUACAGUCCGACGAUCUUUAUUGAUUGCUUCUUUCCAAAAUCGAAAAGAAAGAAAAAAGAACGUGACAGGAGAAGGGAAGCUGGAAACUGCCAUGGCCAGAAUUGCCCCUCCCCCACACUCACUGCUGGAAUUCUCGGGUGCCAA`: “RBNS enrichment (R)” 2.15.
`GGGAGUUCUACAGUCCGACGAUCUGAUAUUUCUUGAAGUCUAACUCUGUGCUAACAGAUCUUCAUUUUAAAUAGAAUACGGUUUUAAUUUUUGAUAAGCUGCUGAAUUUUAAAGAGAGUUUUUUGGGGCCACCUGGAAUUCUCGGGUGCCAA` — result for “RBNS enrichment (R)”: 1.15.
Under “RBNS enrichment (R)”, `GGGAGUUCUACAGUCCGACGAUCGCAUUGCAGGAUUAUUAGUGUAUUUUGAGUCUGUAAAAAUAAUAAAUAUGUUUGAAGUAGUUUCCCAUUGUGUAGUUAGUUUCCUUAUCAAUCAUGAUAGGUAUCCAGGAUGGAAUUCUCGGGUGCCAA` is recorded as 1.34.
`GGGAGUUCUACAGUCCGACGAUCCCCAGCAAGUCAUAACCUCCUGUCUUCUAGGAACCCGUGGGCUUUUACUGUGCAUGUCUCUGUACAAAGUGUACCUCUGGAAGCUGCCAAGUGAUAACACUGCUUUCUUAUGGAAUUCUCGGGUGCCAA` — result for “RBNS enrichment (R)”: 6.21.
`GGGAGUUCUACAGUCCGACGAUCCUUAGCAAACCAGCAUAAGAGAAUCUACCCAUGGAAUGUUCUGGAAGGUGGGCAGUCCAGGUUACAGUUGAUGAAGGAAACAGUGCCUGUCUGCCUCUCAUGUGUGACCCUGGAAUUCUCGGGUGCCAA`: “RBNS enrichment (R)” 1.03.

Block 2
Target: Ras GTPase-activating protein-binding protein 1, C-terminal RGG region (G3BP1, Homo sapiens, UniProt Q13283)
UniProt Q13283, sequence (whole entry, looked up): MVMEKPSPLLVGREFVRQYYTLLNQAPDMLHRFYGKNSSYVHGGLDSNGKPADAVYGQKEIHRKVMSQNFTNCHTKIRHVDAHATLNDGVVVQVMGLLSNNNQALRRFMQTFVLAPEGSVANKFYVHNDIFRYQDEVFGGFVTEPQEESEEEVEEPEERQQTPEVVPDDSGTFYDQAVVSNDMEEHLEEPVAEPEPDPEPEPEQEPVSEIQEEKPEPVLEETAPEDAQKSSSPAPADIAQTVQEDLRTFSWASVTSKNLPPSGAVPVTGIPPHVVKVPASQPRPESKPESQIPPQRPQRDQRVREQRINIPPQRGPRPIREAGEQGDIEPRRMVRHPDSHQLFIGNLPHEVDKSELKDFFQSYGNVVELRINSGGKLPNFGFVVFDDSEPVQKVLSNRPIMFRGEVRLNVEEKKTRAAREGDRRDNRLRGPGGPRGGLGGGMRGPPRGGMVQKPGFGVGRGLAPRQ
Technique: RNA Bind-n-Seq
Molecule type: RNA
Sample: in vitro
Concentration: 1 µM
Notes: whole 134-nt RNA, ends assumed
Together with: 150 mM KCl
Baseline: input library
Reading: higher = stronger binding
`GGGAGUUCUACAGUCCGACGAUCCCAUAGACCCCUUUCUUCUCCCCUUCCCCACGGUAGGAACAUAGCGUGUUUAUAUUUUAUGGCCAAACUAUUUUGAAUUUUGUUGUCCGGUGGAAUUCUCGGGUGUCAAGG` gave a log2 enrichment of 0.0738.
For `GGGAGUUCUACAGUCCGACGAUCCAAGUCCUGUGCUACACAUCGUAUGUACCGAAUCGGGUUUGGGAAAAAGGGAGGGAAAGUAUUAUGUUACGCCGUUCGGAUCUGCACUUCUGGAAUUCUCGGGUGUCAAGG`, the log2 enrichment was 2.24.
`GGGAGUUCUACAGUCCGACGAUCUAACUUUAGAGGAGGAUCUGAUGGAUAUGGCAGUGGACGUGGAUUUGGGGAUGGCUAUGAUGGGUAUGGAGGAGGACCUGGAGGUGGCAAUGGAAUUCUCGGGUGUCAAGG` has a log2 enrichment of -1.12.
`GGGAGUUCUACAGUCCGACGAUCCAAGUCCUGUGCUACACAUCGUAUGUACCGAAUCGGAAAAGGAAAAGGGGAAAAGGAAAGUAUUAUGUUACGCCGUUCGGAUCUGCACUUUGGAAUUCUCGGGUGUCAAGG` gave a log2 enrichment of -1.78.
`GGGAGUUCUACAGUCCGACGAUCGUCCUGUGCUACACAUCGUAUGUACCGAAUCGGGAAAAAAAGGGAAAAAAAGGGAGGGAAAGUAUUAUGUUACGCCGUUCGGAUCUGCACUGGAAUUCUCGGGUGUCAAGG` gave a log2 enrichment of 0.37.
With `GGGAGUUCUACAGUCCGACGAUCUGGCCCUGGUGGCAUGCGGGGAGGAAGAGGUGGCCUCAUGGAUCGUGGUGGUCCCGGUGGAAUGUUCAGAGGUGCCCGUGGUGGAGACAGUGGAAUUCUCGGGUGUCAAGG` the log2 enrichment was 3.33.
`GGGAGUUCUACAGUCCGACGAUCUGAAGGCGCGGCCCUUCCCCGACGGCCUGGCCGAGGACAUCGAUAAAGGCGAGGUGUCCGCCCGUCAGGAGCUCAAGCAGCGGGCGCGCUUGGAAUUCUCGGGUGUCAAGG` has a log2 enrichment of -1.32.
`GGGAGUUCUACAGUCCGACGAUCCACAGACAACACGCACCCACACAGACACAGAGGGAAGGGGUUGGGAUGGGGACAGGGUGCACAGAAGGGCGGGGUAGGACCCCAGCCCCUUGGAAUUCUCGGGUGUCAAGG` gave a log2 enrichment of 0.0781.
With `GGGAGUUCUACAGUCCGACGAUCUCCUGUGCUACACAUCGUAUGUACCGAAUCGGAAAAAAGGAAAAAAGGGGAAAAAAGGGAAAGUAUUAUGUUACGCCGUUCGGAUCUGCAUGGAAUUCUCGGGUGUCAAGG` the log2 enrichment was -1.42.
The log2 enrichment of `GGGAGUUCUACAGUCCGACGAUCUGGGAGGUGGAUUUUGUUUAUUUUUUUUGCUCAUUUCCAGGGGUGGGAAUUUUUUUUUAAUAUGUGUCAUGAAUAAAGUUGUUUUUGAAAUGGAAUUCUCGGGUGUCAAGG` is reported as 3.33.

Block 3
Target: RING finger protein unkempt homolog, zinc fingers 1-6, GST-SBP tag (UNK, Homo sapiens, UniProt Q9C0B0, residues 30-357)
UniProt Q9C0B0, sequence (30-357, looked up): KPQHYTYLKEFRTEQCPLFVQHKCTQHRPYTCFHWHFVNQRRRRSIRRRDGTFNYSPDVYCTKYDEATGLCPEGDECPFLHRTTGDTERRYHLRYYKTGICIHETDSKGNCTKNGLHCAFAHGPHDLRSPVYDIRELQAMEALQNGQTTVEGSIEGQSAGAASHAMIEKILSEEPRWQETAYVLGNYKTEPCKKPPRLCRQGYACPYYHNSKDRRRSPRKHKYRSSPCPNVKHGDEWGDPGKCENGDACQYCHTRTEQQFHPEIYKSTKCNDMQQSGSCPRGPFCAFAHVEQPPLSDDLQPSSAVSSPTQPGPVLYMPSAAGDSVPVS
Technique: RNA Bind-n-Seq
Molecule type: RNA
Sample: in vitro
Concentration: not given
Notes: RNA with constant flanks, human and mouse sites, ends assumed
Baseline: input RNA pool
Reading: higher = stronger binding
`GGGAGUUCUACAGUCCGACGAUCCAAGGAGCCAGUGCUGGUCGUGUCCUUCGUCGUCGGGGGCCUCGCUGUAAUUCUGCCCCCAUUGAGCCCCUACUUCAAGUACUCCGUCAUGAUCAACAAGGCCACGCCCUACAACUACCCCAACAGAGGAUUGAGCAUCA` gave a bound/input enrichment of 0.26 ratio.
`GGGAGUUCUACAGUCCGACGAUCUGGAUGAAGCUCCUGCCGACCCUCACCUGACAAUCUGAGUUCUGUUCUUGGGACCCACGCGUGGAAGCAGGGAACAAACUCCUGCAAGUUGUCUUCUGAUCUUCACUUGUGUGCUGUGUCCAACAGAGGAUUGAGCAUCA` gave a bound/input enrichment of 0.102 ratio.
With `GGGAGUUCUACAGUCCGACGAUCUUCUUUUCUAAAACCUUGUUUAACUGCCUUGUUUAUGGACCAGAAAAUACCCAGCCAAUUUUAGAUGAUGUUUCAGACUUUGAUGUGGCACAGAUUAUAAUCAGGAUAAAUACUGCAACACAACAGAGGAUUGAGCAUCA` the bound/input enrichment was 1.21 ratio.
`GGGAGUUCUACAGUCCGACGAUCGUGACGUGCAAUGGAGUCCUCGUUAAUGCCGGUGAUAAGGUGCAGCAUGGAGCCGUGUACAGUUUGGAGCCCAGGCUUCGUGGGGGGAAAGGAGGUUUUGGGUCUAUGCUUCGAGCACUUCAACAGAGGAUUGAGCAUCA` gave a bound/input enrichment of 0.188 ratio.
With `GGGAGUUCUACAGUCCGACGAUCUGCUUCCUGGUCCUUAGAGGACUAAAAACAAGACCCUCAUUCCCACUUUCAUUUCCACUCUAGCAAAAACUGGGCUUGCGUUUUUCUCCAACUCCUCGUUUAUAUCCUCCCUUCCAUGUCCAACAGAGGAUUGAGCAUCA` the bound/input enrichment was 0.755 ratio.
`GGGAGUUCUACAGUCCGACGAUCCCUCCAGAAUUUGGGUUUCCUGAGAAGACAACAGUGAAACAGCGUUACCGGCUGCUUGGCAAUAGCCUCAACGUGCAUGUGGUAGCAAAACUCCUCACAGUCCUGUGUGAAGGAUUUGGACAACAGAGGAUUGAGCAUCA` gave a bound/input enrichment of 0.246 ratio.
For `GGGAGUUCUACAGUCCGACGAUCUAAUUUAAAAGAAUUACUAAUUCCCCUACCCCCAUCUGUGCUGAGGACAUUUCCCAGCCCUAGCUGGGGGAAAACAGCAUUUUCUUGAAGUGUGUGGCAUUAUCAAUGGGGAUUCAAAGUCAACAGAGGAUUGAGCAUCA`, the bound/input enrichment was 0.248 ratio.
`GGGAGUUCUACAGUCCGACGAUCCUCAUUCAGGACUCAGUGACUGGUUUUUUUUUGUUUGUUUGUUUGUUUUGUUUUGUUUUGUUUUUCUUAAUCACAAGGGCGUGGGUCAGCCUCCCCUAGGACUUCAUGUCUGUAUAUUUCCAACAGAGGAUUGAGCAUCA` gave a bound/input enrichment of 2.21 ratio.

Block 4
Target: Histone acetyltransferase KAT6A, both winged helices, GST fusion (KAT6A, Homo sapiens, UniProt Q92794, residues 1-181)
Technique: protein binding microarray
Molecule type: double-stranded DNA, one strand shown
Sample: in vitro
Concentration: not given
Notes: 8-mer, flanks averaged, mean of 2 arrays, mostly near background
Baseline: not given
Reading: higher = stronger binding
Target sequence (chain): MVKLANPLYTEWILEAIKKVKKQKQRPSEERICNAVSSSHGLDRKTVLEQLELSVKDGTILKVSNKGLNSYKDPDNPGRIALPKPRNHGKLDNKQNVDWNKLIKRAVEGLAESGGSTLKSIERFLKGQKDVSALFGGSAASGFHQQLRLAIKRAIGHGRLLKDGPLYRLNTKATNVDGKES
With `CTCGCTAA` the E-score was 0.18.
For `AGGATAAA`, the E-score was -0.169.
With `ATCCTAGG` the E-score was -0.201.
For `CGATTGCC`, the E-score was 0.106.
The E-score of `CATTAATA` is reported as -0.052.
For `GCTTCATA`, the E-score was 0.0828.
`TATGGCGA` gave an E-score of -0.0701.
The E-score of `CAACTCCG` is reported as 0.0647.
`ACGACACT` gave an E-score of -0.0469.
The E-score of `CCCACGGA` is reported as 0.176.
With `GAAAGCTC` the E-score was -0.144.
`CAATCGAA` has an E-score of -0.027.
The E-score of `GAGCTTGA` is reported as -0.102.
The E-score of `ATACAACA` is reported as -0.0725.
`AACGCGGT` has an E-score of 0.311.
`CAACCTGG` has an E-score of -0.0848.
`CTAGTGAG` gave an E-score of -0.114.
The E-score of `CCTAGTAA` is reported as -0.0853.
With `ACCGCCGA` the E-score was 0.261.
The E-score of `ATAGCTCG` is reported as -0.005.
`CATGTTTA` has an E-score of 0.0773.
The E-score of `CCAGAGAA` is reported as -0.047.
`GAAAACAC` has an E-score of 0.0237.
For `GACGAAGA`, the E-score was -0.0434.
The E-score of `GTGTTCGA` is reported as 0.0863.

A few entries again (block 4):
For `CGATTGCC`, the E-score was 0.106.
`CAACCTGG` has an E-score of -0.0848.
For `AGGATAAA`, the E-score was -0.169.
With `ACCGCCGA` the E-score was 0.261.
The E-score of `ATAGCTCG` is reported as -0.005.
